Earlier results, collected from citations in different studies.
Protocols differ between the studies behind these lines. “And” joins repeats or separate records; there may be more than shown. In brackets after ≈: the same amount, converted by molar mass.
Sequence of UniProt Q99683 (whole entry, looked up): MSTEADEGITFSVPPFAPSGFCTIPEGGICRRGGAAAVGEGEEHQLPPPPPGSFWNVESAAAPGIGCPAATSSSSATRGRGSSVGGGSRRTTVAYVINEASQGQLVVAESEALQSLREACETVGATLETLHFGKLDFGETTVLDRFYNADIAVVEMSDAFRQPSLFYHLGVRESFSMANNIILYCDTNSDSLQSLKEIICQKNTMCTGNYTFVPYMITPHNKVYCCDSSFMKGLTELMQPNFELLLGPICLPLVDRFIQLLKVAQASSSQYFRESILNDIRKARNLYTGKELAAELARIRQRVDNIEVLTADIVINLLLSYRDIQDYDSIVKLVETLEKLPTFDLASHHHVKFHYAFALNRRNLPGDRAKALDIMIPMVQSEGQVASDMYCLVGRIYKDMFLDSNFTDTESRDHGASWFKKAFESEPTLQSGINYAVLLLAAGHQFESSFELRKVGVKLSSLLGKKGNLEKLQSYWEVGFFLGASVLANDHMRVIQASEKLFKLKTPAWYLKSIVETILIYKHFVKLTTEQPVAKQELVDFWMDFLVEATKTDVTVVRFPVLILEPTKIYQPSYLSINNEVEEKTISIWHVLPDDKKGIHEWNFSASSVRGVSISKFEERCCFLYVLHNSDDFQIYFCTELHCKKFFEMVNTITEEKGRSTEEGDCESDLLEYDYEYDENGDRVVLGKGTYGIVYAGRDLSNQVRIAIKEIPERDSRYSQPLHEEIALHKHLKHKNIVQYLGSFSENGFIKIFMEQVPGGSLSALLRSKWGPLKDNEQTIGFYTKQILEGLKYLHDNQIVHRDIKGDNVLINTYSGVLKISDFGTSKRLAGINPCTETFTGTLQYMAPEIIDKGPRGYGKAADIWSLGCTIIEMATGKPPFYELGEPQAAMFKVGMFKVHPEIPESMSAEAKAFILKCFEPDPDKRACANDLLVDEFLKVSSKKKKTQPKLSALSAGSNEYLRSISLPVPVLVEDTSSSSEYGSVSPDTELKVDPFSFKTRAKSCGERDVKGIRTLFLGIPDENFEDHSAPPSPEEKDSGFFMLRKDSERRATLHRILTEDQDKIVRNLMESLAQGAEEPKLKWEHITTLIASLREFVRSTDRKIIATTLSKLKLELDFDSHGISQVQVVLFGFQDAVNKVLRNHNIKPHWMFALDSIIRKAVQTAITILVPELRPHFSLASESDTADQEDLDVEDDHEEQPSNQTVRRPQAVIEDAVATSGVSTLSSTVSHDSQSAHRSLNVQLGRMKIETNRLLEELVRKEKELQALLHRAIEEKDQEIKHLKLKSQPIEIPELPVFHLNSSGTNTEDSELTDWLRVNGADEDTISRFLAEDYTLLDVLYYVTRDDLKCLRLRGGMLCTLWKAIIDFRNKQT

The MIC of `FC(F)(F)c1ccc(Oc2ccc(-c3noc(-c4ccc5[nH]ccc5c4)n3)cc2)cc1` is reported as greater than 128 µg/mL (Klebsiella pneumoniae; ATCC 700603).
The IC50 of `Cc1[nH]c(C)c(-c2ccc(-c3cccc(OC(F)(F)F)c3)nc2)c(=O)c1Cl` is reported as 0.07 µM (Plasmodium falciparum; whole cell extended time; 3D7; 72 h).
With `O=c1c(O)c(-c2ccc(O)c(O)c2)oc2cc(O)cc(O)c12` the IC50 was 5.93 µg/mL (human cytomegalovirus; viral replication).
The MIC90 of `COc1ccc(-c2cc(NC(=O)c3ccc(Cl)cc3F)ccc2OC)cc1` is reported as 12.5 µM (≈ 4.82 µg/mL) (Mycobacterium tuberculosis).
`Cc1cnc(N2CC3(CCOCC3)C2)c(C(=O)Nc2ccc(C(=O)N3CCc4cc(C(=O)Nc5c(C)cccc5F)sc4-c4ccccc43)cc2)c1` gave an ID50 of 0.0666 mg/kg (respiratory syncytial virus; viral replication, PCR; cotton rat, lung homogenate).
`c1cn[nH]c1` gave an EC50 of 15800 µM (Cryptosporidium parvum).
The IC50 of `N/C(CC(O)c1cc2c(F)cc(F)cc2c2cc(C(F)(F)F)ccc12)=N\c1ccc(F)cc1` (centres unmarked) is reported as 0.003 µM (Plasmodium falciparum; parasite growth; 7G8).
The IC50 of `CCc1ccc(C(=O)NC(=O)c2ccccc2O)cc1` is reported as 0.61 µM (Plasmodium falciparum; whole cell extended time; 3D7; 72 h).
For `[N-]=[N+]=N[C@]1(CO)O[C@@H](n2ccc(N)nc2=O)[C@@H](F)[C@@H]1O`, the EC50 was greater than 100 µM (respiratory syncytial virus; viral replication; HEK293T).
`N#Cc1ccc(N[C@@H](CC2CCCCC2)C(=O)N[C@@H]2CCCc3ccccc32)c2ccccc12` has an IC50 of 0.73 µM (Plasmodium falciparum; whole cell extended time; 3D7; 72 h).
For `CC1(C)S[C@@H]2[C@H](NC(=O)[C@H](N)c3ccccc3)C(=O)N2[C@H]1C(=O)O`, the MIC was 8 µg/mL (≈ 22.9 µM) (Klebsiella pneumoniae; clinical isolate RKI-No_600/16).
`O=C(C1CCCCC1)N1CC(=O)N2CCc3ccccc3C2C1` (centres unmarked) — result for “worm burden reduction”: “inactive” (Schistosoma mansoni; juvenile, infected mice; dose not given).
The MIC of `CNC(C)C1CCC(N)C(OC2C(N)CC(N)C(OC3OCC(C)(O)C(NC)C3O)C2O)O1` (centres unmarked) is reported as 1 µg/mL (≈ 2.09 µM) (Klebsiella pneumoniae; clinical isolate RKI-No_138/16).
For `CCc1c(Cl)c(O)c(Cl)c(O)c1C(=O)O[C@H]1[C@H](O)[C@H](OC)[C@H](OC/C2=C\C=C\C[C@H](O)/C(C)=C/[C@H](CC)[C@@H](O[C@@H]3OC(C)(C)[C@@H](OC(=O)C(C)C)[C@H](O)[C@@H]3O)/C(C)=C/C(C)=C/C[C@@H]([C@@H](C)O)OC2=O)O[C@@H]1C`, the MIC was greater than 128 µg/mL (Pseudomonas aeruginosa; ATCC 27853).
`N#C/C=C/c1ccc2c(S(=O)(=O)n3nc(Nc4ccc(C#N)c(Cl)c4)nc3N)cccc2c1` has an EC50 of 0.00024 µM (HIV-1; viral replication; TZM-bl, IIIB wild type).
`Oc1ccc(-c2nc(-c3ccc(OC4CCCC4)cc3)no2)cc1` has an MIC of 2 to 4 µg/mL (≈ 6.2 to 12.4 µM) (Staphylococcus aureus; ATCC 27660 mecA-positive).
With `Cc1[nH]c(C)c(-c2ccc(-c3ccc(OC(F)(F)F)cc3)nc2)c(=O)c1Cl` the IC50 was 0.2 µM (Plasmodium falciparum; whole cell extended time; 3D7; 72 h).
Under “worm burden reduction”, `O=C(C1CCCCC1)N1CC(=O)N2CCc3ccccc3[C@H]2C1` is recorded as 18% (Schistosoma mansoni; infected mice; 400 mg/kg; baseline: untreated).
`CCCCCCCc1[nH]c2ccccc2c(=O)c1C` has an IC50 of 0.51 µM (Plasmodium falciparum; whole cell extended time; 3D7; 72 h).
With `N#Cc1cc(NC(=O)[C@H]2c3ccccc3C(=O)N(CC(F)(F)F)[C@@H]2c2cccnc2)ccc1F` the ED90 was < 2 mg/kg and 1.9 mg/kg (Plasmodium falciparum; 3D70087/N9, NSG mouse).
For `c1cc(CN2CCN(c3ccncc3)CC2)cc(-c2ccc(-c3nc4ccccc4[nH]3)cc2)c1`, the IC50 was 0.15 µM (Plasmodium falciparum; whole cell extended time; 3D7; 72 h).
The remaining activity of `Nc1cc(C(F)(F)F)c(-c2nc(N3CCOCC3)nc(N3CCOCC3)n2)cn1` is reported as 55% (Mitogen-activated protein kinase kinase kinase 5 (MAP3K5, Homo sapiens, UniProt Q99683); enzyme activity; 10 µM; baseline: untreated).
`Cc1[nH]c(C)c(-c2ccc(OCc3cccc(C(F)(F)F)c3)nc2)c(=O)c1Br` has an IC50 of 0.04 µM (Plasmodium falciparum; whole cell extended time; 3D7; 72 h).
For `CCOC(=O)C(c1c(O)ccc2ccccc12)N1CCOCC1` (centres unmarked), “relative fluorescence index” read 0.87 (Staphylococcus aureus; efflux pump inhibition; ATCC 25923; 100 µM; baseline: untreated cells).
`Cc1[nH]c(C)c(-c2ccc(OCc3cc(C(F)(F)F)cc(C(F)(F)F)c3)nc2)c(=O)c1Br` gave an IC50 of 0.15 µM (Plasmodium falciparum; whole cell extended time; 3D7; 72 h).
The required dose of `C=C[C@]1(C)C[C@@H](OC(=O)CSCCN(CC)CC)[C@]2(C)[C@H](C)CC[C@]3(CCC(=O)[C@H]32)[C@@H](C)[C@@H]1O` is reported as 45 mg/kg (Mycoplasma gallisepticum; chickens; intramuscular, dose not given).

Repeated from above:
`Cc1[nH]c(C)c(-c2ccc(OCc3cc(C(F)(F)F)cc(C(F)(F)F)c3)nc2)c(=O)c1Br` gave an IC50 of 0.15 µM (Plasmodium falciparum; whole cell extended time; 3D7; 72 h).
The IC50 of `N/C(CC(O)c1cc2c(F)cc(F)cc2c2cc(C(F)(F)F)ccc12)=N\c1ccc(F)cc1` (centres unmarked) is reported as 0.003 µM (Plasmodium falciparum; parasite growth; 7G8).
`N#C/C=C/c1ccc2c(S(=O)(=O)n3nc(Nc4ccc(C#N)c(Cl)c4)nc3N)cccc2c1` has an EC50 of 0.00024 µM (HIV-1; viral replication; TZM-bl, IIIB wild type).
For `CC1(C)S[C@@H]2[C@H](NC(=O)[C@H](N)c3ccccc3)C(=O)N2[C@H]1C(=O)O`, the MIC was 8 µg/mL (≈ 22.9 µM) (Klebsiella pneumoniae; clinical isolate RKI-No_600/16).
